Published values from different studies.
Parts stem from different laboratories: compare values within a part only.

Series 1 — technique: protein-binding microarray; form: double-stranded DNA, one strand shown; medium: in vitro; tested at: 2540 nM top; notes: 60-bp whole probe; with: salmon DNA 0.4 mg/ml; baseline: random background probes; direction: higher = stronger binding; shared flanks, not repeated: GCCTAGCAC … GTCTTGATTCGCTTGACGCTGCTG
Target: Interferon regulatory factor 3, full length, phosphomimetic (IRF3, Homo sapiens, UniProt Q14653, residues 1-427, S386D/S396D/S398D/S402D/T404D/S405D)
Residues (chain): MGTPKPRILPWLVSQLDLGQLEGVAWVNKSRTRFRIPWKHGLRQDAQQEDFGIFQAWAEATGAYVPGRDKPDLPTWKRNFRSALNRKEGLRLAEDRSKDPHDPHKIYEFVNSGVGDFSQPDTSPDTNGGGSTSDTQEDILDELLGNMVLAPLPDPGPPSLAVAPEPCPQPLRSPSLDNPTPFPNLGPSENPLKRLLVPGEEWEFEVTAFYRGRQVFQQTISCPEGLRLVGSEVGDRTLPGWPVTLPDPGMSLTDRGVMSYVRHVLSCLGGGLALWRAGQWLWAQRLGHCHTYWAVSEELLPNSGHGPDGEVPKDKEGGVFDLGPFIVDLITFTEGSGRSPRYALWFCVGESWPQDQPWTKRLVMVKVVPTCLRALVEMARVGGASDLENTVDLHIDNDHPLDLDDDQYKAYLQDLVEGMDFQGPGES
Oligonucleotide | fitted relative affinity
GACGGTTTCGGACTAGGGACGTGCTAG | 5.27 z-score
TTAGATTTCAGTTCCGATCAGTGCTAG | 3.16 z-score
TCACTTTTCACTTTACAACTGTGCTAG | 3.21 z-score
TTAGGTTTCGGGACTGGATTAGTGCTA | 4.55 z-score
TTAGATCTCCGTTTCGATTAGTGCTAG | 3.52 z-score
TCAGTCCTCTCTCTATTACTGTGCTAG | 0.74 z-score
GACGGTATCGGGACTGGCGACGTGCTA | 1.95 z-score
TCAGATGCCTTTCTCTTACTGTGCTAG | 4.11 z-score
GACGATTTCAGTCTCGAGACGTGCTAG | 2.51 z-score
GACGATCTCAGACTGGAGACGTGCTAG | 0.248 z-score
TTAGGTTTCGGGATCGGTTAGTGCTAG | 4.66 z-score
GACGATCTCCGTCTCGAGACGTGCTAG | 1.22 z-score
TTAGGTATCGGGTATCCGTTAGTGCTA | 1.99 z-score
GACGATTTCGGGACTGGAGAAGTGCTA | 1.93 z-score
CAGCATGCCTGTCCCTGGGTGTGCTAG | -0.851 z-score
TTAGATCTCAGTCTCGATTAGTGCTAG | 0.802 z-score
GACGATAGCGGGTATCGAGACGTGCTA | -0.549 z-score
TCACCATTAAATTTTAAACTGTGCTAG | 0.136 z-score
CTTAGTATTTTTTTCCAGAGGTGCTAG | 1.28 z-score
GACGAACTGGGATTTCGAGACGTGCTA | -0.147 z-score
TTAGATATCGGGTTTCGATGAGTGCTA | 1.03 z-score
TTAGATTTCGGGACTGGATTCGTGCTA | 1.31 z-score
CCAATTCTCTTTTCACTTTCGTGCTAG | 3.21 z-score

Series 2 — technique: aptamer microarray, sandwich; form: DNA with 2'F-ANA; medium: in vitro; tested at: 200 nM; with: Cy3 exosite-II aptamer, 400 nM; direction: higher = stronger binding; oligonucleotide: GGTTGGTGTGGTTGG
Target: Prothrombin, mature alpha-thrombin (F2, Homo sapiens, UniProt P00734)
Notes: whole 15-mer aptamer, many near background
Modification | mean fluorescence intensity
2'F-ANA at 1 2 3 4 6 7 9 11 12 13 14 | 71.3 a.u.
2'F-ANA at 1 2 4 5 7 11 14 15 | 43.6 a.u.
2'F-ANA at 1 4 5 6 9 11 12 13 14 15 | 58.5 a.u.
2'F-ANA at 1 4 5 6 7 8 10 14 | 51 a.u.
2'F-ANA at 2 4 5 6 7 11 12 13 14 15 | 51.1 a.u.
2'F-ANA at 2 5 6 7 9 10 12 13 14 | 47 a.u.
2'F-ANA at 1 2 4 9 11 14 15 | 53.2 a.u.
2'F-ANA at 3 5 7 8 9 11 12 13 | 180 a.u.
2'F-ANA at 2 4 6 7 15 | 314 a.u.
2'F-ANA at 2 3 6 7 9 12 15 | 842 a.u.
2'F-ANA at 2 3 4 5 6 9 10 12 13 14 15 | 48.3 a.u.
2'F-ANA at 2 6 7 8 9 10 11 12 13 14 | 85.8 a.u.
2'F-ANA at 1 2 3 5 13 15 | 52.1 a.u.
2'F-ANA at 1 2 5 7 9 10 11 12 13 15 | 69 a.u.
2'F-ANA at 1 2 3 4 6 8 10 14 15 | 49.1 a.u.
2'F-ANA at 3 4 5 6 7 9 14 15 | 49.2 a.u.

Series 3 — technique: protein binding microarray; form: double-stranded DNA, one strand shown; medium: in vitro; tested at: not given; baseline: not given; direction: higher = stronger binding
Target: Histone acetyltransferase KAT6A, both winged helices, GST fusion (KAT6A, Homo sapiens, UniProt Q92794, residues 1-181)
Notes: 8-mer, flanks averaged, mean of 2 arrays, mostly near background
Residues (chain): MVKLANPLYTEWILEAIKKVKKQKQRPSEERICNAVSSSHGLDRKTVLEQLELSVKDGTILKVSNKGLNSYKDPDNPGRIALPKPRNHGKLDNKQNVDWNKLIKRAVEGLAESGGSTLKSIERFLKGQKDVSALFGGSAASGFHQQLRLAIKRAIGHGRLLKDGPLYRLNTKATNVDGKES
Oligonucleotide | E-score
TCATAGAA | 0.00507
AAGTGTCT | -0.192
GATATTAC | 0.0325
GGTATTCA | 0.0266
ACGCCCCG | 0.149
ACCTGGTA | -0.264
TAGCAGCA | -0.229
CTAGATAG | -0.108
CGCCGCAA | 0.357
CGTGTGTA | 0.0278
GAGCTATA | -0.214
ATCAGTGC | -0.0851
AACATATG | -0.0611
TCACCCCA | -0.116
CGGGCCGC | 0.303
ATACGACG | 0.0872
AACATGCC | 0.159
CTCTGGGC | -0.127
CCCCTATA | -0.0608
ACCTTTTG | -0.142
GAACAAAA | 0.0488
GTTTCAGA | -0.0546
ACGCGCCA | 0.197
AAATCAAG | 0.0331
AGTCGCAC | 0.0626

Series 4 — technique: RNA Bind-n-Seq; form: RNA; medium: in vitro; tested at: 200 nM; notes: whole 134-nt RNA, ends assumed; with: 150 mM LiCl; baseline: input library; direction: higher = stronger binding; all molecules: 7-deaza-guanosine replaces G
Target: Ras GTPase-activating protein-binding protein 1, full length (G3BP1, Homo sapiens, UniProt Q13283)
Chain of UniProt Q13283 (whole entry, looked up): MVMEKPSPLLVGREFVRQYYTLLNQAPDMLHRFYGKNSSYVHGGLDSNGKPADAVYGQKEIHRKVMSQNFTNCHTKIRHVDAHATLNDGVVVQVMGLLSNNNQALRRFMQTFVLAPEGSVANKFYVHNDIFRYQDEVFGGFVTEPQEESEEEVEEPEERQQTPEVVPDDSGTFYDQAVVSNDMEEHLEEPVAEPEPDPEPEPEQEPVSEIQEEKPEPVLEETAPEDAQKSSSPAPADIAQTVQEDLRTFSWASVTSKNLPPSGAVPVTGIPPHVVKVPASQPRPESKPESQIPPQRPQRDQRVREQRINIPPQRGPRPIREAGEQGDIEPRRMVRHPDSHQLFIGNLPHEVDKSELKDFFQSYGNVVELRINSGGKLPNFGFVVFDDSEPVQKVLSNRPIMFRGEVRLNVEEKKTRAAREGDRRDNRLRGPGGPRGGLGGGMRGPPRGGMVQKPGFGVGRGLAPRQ
Shared flanks, not repeated: GGGAGUUCUACAGUCCGACGAUC … UGGAAUUCUCGGGUGUCAAGG
Oligonucleotide | log2 enrichment
AAGUCCUGUGCUACACAUCGUAUGUACCGAAUCGGGUUUGGGUUUUUUUGGGUGGGAAAGUAUUAUGUUACGCCGUUCGGAUCUGCACUU | 0.202
ACCAUGCAGGUGGGCAUUUUUGGGAAGUGGGGCAAGGGGGGGAUAGGGAGGGGGGUAACACUUUGGGAACAGGUGGUCCCAGGUCGUUUC | 0.2
UCAAGUCCUGUGCUACACAUCGUAUGUACCGAAUCGGUGGAAAAAAAGGAAAGGAAAGUAUUAUGUUACGCCGUUCGGAUCUGCACUUCC | -1.05
GCAGGAAGUAAAAACAAAUGGAAAUGCUAAAGAUAGUGGCAGGGGUGGGGGUUGCUAAGGAAAGGGUGGGAUGGGAGUGGGUAAAGAGUU | 0.405
UGCUGGAGAUGCAAUAUAUGAGGUGGUGAGUCUACAGCGAGAGUCUGACAAGGAGGAACCAGUCACUCCUACUAGUGGAGGGGGUCCAAU | -3.83
AGUCCUGUGCUACACAUCGUAUGUACCGAAUCGGGGAGGGGAAAAAAAGGGGAGGGGAAAGUAUUAUGUUACGCCGUUCGGAUCUGCACU | 0.116
UGGCCCUGGUGGCAUGCGGGGAGGAAGAGGUGGCCUCAUGGAUCGUGGUGGUCCCGGUGGAAUGUUCAGAGGUGGGCGUGGUGGAGACAG | -0.227
AAGUCCUGUGCUACACAUCGUAUGUACCGAAUCAAACCCAAAUUUAAAUUUUUAAAAAAGUAUUAUGUUACGCCGUUCGGAUCUGCACUU | -0.0362
CACAGACAACACGCACCCACACAGACACAGAGGGAAGGGGUUGGGGUGGGGACAGGGUGCACAGCAGGGCGGGGUAGGACCCCAGCCCCU | 0.735
ACCAUGCAGGUGGGCAUCUUUGGGAAGUGGGGCAAGGGGGGGAUAGGGAGGGGGGUAACACUUUGGGAACAGGUGGUCCUAGGUCGUUUC | 0.0114
GUCCUGUGCUACACAUCGUAUGUACCGAAUCGGGUUUUUGGGUUUGGGAAAAAAAGGGAAAGUAUUAUGUUACGCCGUUCGGAUCUGCAC | -1.46

Series 5 — technique: universal PBM; form: double-stranded DNA, one strand shown; medium: in vitro; tested at: 600 nM; direction: higher = stronger binding
Target: Sal-like protein 4, full length isoform A (SALL4, Homo sapiens, UniProt Q9UJQ4, residues 1-1053)
Chain of UniProt Q9UJQ4 (whole entry, looked up): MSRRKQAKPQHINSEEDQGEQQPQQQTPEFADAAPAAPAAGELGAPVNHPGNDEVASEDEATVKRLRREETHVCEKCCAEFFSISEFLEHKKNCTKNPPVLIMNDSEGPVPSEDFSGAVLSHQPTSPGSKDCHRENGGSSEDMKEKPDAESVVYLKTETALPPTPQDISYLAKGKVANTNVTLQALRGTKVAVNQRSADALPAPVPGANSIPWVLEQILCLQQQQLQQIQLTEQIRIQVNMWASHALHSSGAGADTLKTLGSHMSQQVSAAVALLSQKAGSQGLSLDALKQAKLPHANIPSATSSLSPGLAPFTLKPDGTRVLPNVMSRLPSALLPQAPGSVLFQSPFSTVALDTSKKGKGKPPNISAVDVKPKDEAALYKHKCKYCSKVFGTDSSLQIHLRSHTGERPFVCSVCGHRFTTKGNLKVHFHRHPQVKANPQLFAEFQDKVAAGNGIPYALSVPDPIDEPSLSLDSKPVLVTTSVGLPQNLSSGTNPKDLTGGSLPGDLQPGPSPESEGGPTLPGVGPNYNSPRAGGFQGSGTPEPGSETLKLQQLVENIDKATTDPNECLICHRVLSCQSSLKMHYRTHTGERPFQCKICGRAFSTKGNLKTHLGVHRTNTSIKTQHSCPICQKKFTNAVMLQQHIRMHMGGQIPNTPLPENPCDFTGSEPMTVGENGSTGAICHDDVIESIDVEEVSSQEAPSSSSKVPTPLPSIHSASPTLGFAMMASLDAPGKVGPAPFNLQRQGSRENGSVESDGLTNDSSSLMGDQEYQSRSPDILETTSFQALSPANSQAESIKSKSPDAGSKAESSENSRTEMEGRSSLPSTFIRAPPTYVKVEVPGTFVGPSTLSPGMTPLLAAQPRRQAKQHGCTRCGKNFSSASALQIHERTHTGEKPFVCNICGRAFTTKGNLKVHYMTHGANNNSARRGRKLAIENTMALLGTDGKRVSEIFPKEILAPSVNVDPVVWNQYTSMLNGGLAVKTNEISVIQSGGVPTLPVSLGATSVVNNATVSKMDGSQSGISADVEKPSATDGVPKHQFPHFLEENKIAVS
Notes: 8-mer, flanks averaged, mean of replicates
Oligonucleotide | E-score
TAAGTCAA | 0.19
CTCGGGCA | -0.242
CTTTCTTC | -0.0244
AAGTTTTA | 0.267
AATCCGTA | 0.0298
CACCTCGG | -0.148
CTATCGAC | -0.204
AACACTGT | 0.0502
CAAACGGC | -0.312
AGGAGAAA | 0.0586
ACGACCCG | -0.241
CTCATTCC | 0.0668
CTTCTACA | 0.15
AAATGATA | 0.396
CTCGAAAC | -0.0585
AGGCATGC | -0.0601
CCAAATGA | 0.226
TCTCGAGA | -0.0518
GTACAGTA | 0.208
CGACCTTC | -0.0837
ACTTGAAC | 0.126
AGGCAGCA | -0.00649
TAGGGATA | 0.127
GAGGACGA | -0.121
ATACCAAG | 0.154
